Published values collected from several papers.
Parts stem from different laboratories: compare values within a part only. Changes are numbered by the printed parent chain.

Sample 1
Target: Histone acetyltransferase KAT6A, both winged helices, GST fusion (KAT6A, Homo sapiens, UniProt Q92794, residues 1-181)
Method: protein binding microarray
Molecule type: double-stranded DNA, one strand shown
Medium: in vitro
Tested at: not given
Notes: 8-mer, flanks averaged, mean of 2 arrays, mostly near background
Relative to: not given
Reading: higher = stronger binding
Residues (chain): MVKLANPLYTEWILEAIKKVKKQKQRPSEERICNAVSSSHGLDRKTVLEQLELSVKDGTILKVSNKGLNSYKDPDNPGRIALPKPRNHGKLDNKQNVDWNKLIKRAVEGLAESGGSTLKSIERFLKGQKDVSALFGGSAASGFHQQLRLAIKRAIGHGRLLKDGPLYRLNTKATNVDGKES
Oligonucleotide | E-score
AGTAATAC | -0.0457
GCTTTGCC | -0.118
CTCTTACA | -0.214
CCCGGCGC | 0.322
AGGTTCGA | -0.21
GAGACAAC | -0.141
ATTACCCG | 0.151
AGTGCATC | -0.13
ACACTAGT | -0.113
CGCCTGGC | 0.171
CTATTTGA | -0.0453
GACATGTA | 0.023
CTTGTCCA | -0.115
GCTGTTAC | 0.163
ATTTATGC | -0.055
AACAACCG | 0.0825
CCTGTTAG | -0.106
ACTAACCT | -0.0639
GACCCTTA | 0.0173
ATCTACGA | -0.149
CTGTGGTA | -0.0927
GACTGGGC | -0.172
GATTTTAA | -0.023
AGTAGGCG | 0.0013
ACTGCGAG | -0.0561

Sample 2
Target: CCND1, cyclin fold, Cln2 fusion (human)
Method: yeast growth competition, sequencing
Medium: yeast
Notes: weak parent motif
Relative to: not given
Reading: higher = stronger binding
Starting sequence: SGO1 docking peptide (human); PLAKRALKYTDEK; partner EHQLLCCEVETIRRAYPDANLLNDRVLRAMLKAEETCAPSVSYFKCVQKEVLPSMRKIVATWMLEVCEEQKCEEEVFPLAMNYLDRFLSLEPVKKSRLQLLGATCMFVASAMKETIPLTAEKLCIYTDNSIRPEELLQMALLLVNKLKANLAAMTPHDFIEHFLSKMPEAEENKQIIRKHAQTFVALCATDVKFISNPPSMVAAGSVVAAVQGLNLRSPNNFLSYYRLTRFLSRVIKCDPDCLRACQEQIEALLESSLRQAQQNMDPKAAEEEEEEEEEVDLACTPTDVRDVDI
Change | normalised enrichment score
PLAKRALKYADEK [T10A] | 0.382
PAAKRALKYTDEK [L2A] | 0.217
PLAKAALKYTDEK [R5A] | -0.134
PLAARALKYTDEK [K4A] | -0.0185
PLAKRALKYTDAK [E12A] | 0.06
PLAKRALAYTDEK [K8A] | 0.096

Sample 3
Target: Interferon regulatory factor 7, full length, phosphomimetic (IRF7, Homo sapiens, UniProt Q92985, residues 1-503, S471D/S472D/S475D/S476D/S477D/S483D/S484D/S487D)
Method: protein-binding microarray
Molecule type: double-stranded DNA, one strand shown
Medium: in vitro
Tested at: 2200 nM top
Notes: 60-bp whole probe
With: salmon DNA 0.4 mg/ml
Relative to: random background probes
Reading: higher = stronger binding
Shared flanks, not repeated: GCCTAGCAC … GTCTTGATTCGCTTGACGCTGCTG
Residues (chain): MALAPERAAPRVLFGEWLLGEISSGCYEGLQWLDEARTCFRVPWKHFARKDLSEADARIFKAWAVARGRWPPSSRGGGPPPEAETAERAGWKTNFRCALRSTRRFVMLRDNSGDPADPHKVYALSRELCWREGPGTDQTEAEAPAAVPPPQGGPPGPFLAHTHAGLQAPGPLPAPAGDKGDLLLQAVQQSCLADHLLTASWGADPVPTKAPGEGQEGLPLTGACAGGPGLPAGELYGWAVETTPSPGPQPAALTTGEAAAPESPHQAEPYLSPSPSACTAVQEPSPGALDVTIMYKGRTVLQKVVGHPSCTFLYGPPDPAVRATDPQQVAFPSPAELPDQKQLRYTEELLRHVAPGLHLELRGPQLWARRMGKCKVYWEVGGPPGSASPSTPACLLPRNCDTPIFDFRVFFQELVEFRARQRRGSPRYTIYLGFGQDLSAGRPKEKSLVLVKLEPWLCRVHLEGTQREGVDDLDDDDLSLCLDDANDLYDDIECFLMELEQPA
Oligonucleotide | fitted relative affinity
TTAGGTTTGGGGACTGGGTTAGTGCTA | 0.0257 z-score
TCAACTTTCTTAATGCTACTGTGCTAG | 2.13 z-score
GACGGTTTCCTGATCCTGACGTGCTAG | 2.13 z-score
GACGGACTGGGGTAGCGGGACGTGCTA | -0.739 z-score
GACGGTTTCGACTTTCGTGACGTGCTA | 7.12 z-score
TTAGGTTTCGACACTGGGTAAGTGCTA | 2.4 z-score
TCATTTATCAAATGTGGGACTGTGCTA | 0.49 z-score
TCATCTTTCACTGCTGCACTGTGCTAG | 2.11 z-score
GACCGTTTCCTACTGCTGACGTGCTAG | 2.45 z-score
GACGATTTCAAACTGGAGACGTGCTAG | -0.183 z-score
TTTCTCTCATTATGTGGGTTGTGCTAG | 2.12 z-score
TTAGGACTGCTTCTGCTTTAGTGCTAG | 0.0304 z-score
TCAGTTCTCCCTTTCAGTTTGTGCTAG | 4.54 z-score
GACGGACTGGGACTGGGGCCGTGCTAG | -0.992 z-score
GACGGTTTCCTTCTCCTGGCGTGCTAG | 2.97 z-score
TTAGGACTACTTATCCTTTAGTGCTAG | 0.278 z-score
GAACCTTGGCCTCTAGGTTTGTGCTAG | 0.458 z-score
GACGGTTTCGGTTCTGGGACGTGCTAG | 11.9 z-score
TCATATATGACAATGATACTGTGCTAG | 0.595 z-score

Sample 4
Target: RING finger protein unkempt homolog, zinc fingers 1-6, GST-SBP tag (UNK, Homo sapiens, UniProt Q9C0B0, residues 30-357)
UniProt Q9C0B0, sequence (30-357, looked up): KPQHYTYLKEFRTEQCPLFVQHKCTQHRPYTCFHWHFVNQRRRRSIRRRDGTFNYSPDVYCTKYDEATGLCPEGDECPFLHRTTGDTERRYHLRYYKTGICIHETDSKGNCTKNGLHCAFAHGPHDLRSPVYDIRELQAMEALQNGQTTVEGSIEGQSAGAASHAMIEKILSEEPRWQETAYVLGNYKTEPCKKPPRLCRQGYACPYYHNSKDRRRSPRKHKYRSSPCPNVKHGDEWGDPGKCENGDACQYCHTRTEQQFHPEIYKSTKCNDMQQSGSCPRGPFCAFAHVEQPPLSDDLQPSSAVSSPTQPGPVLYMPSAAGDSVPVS
Method: RNA Bind-n-Seq
Molecule type: RNA
Medium: in vitro
Tested at: not given
Notes: RNA with constant flanks, human-mouse chimeric sites, ends assumed
Relative to: input RNA pool
Reading: higher = stronger binding
Shared flanks, not repeated: GGGAGUUCUACAGUCCGACGAUC … CAACAGAGGAUUGAGCAUCA
Oligonucleotide | bound/input enrichment
UUGGAAGGACCAGAGCCUAAUCAACUGAAACCAUUAGUUAUACAGGCUAUGCCCACCCUAAUAGAACUAAUGAAAGACCCCAGUGUAGUUGUUCGAGACACAACAGCAUGGACUGUAGGC | 0.874 ratio
CGCUUGGAUGAGGCGGGUGUCACAGAUGAAGUGCUGGAUUCUGCCAUGCAAGCCUUCUUACUAGAAAUCAUUGUUAAACAUGGGGAGCCGGCACCUUAUUUAUGUAACAAAGAUCCGUUU | 0.193 ratio
CAGUCCCCGUGUCCCAGUGCAGGACGAGAACAUGGACAACUCAAAGCGGACCCUCUAUUGUAGUUCUUGAUUCUCGAAAUGUGCUAUUAUUGUUUGUCUUUUUUUUUUUUUUUUUAAAGA | 0.984 ratio
CGGAGCCCUCCUCUCCCACAGGCCCAAGAUAUAACCCACCAGUGCCUUUUGUCUUCCUGUCAGCUCUGUCAAUCACGCCUGUCCUCUCACGCCCACACUCCCCAGCCAAAGUGGGGAGGG | 0.615 ratio
CCCUCCCCGGGCCACCCACCCCUCCCGGCUCCCCGCCAGAGCAAGGUUUUCUUCUUAUUUCAUAGCAAAUAAGAAAAAUGUUCUACGCACAUUUUGUCCUCAGUAAACGAGGGCCUCUGG | 0.661 ratio
GUGACUGGUGUUAAGAUUUCCCCUCAGCAAAGAAGUGUAGCAGUGACCAUAAUUCCAUCUAUAGUGAGUGCCAGUCAGAUUGUGGAGCUGGUCCCAGACCUCAGUUUAGACAUGGGAACU | 1.2 ratio
CCCUCCCCGGGCCACCCACCCCUCCCGGCUCCCCGCCGAGAUCCAGGUUUCUUCUUAUUUCAUAGCCAGCCAGAACAAUGUUCUACGCACAUUUUGUCCUCAGUAAACGAGGGCCUCUGG | 1.54 ratio
CUGGCACUCUAUCAGAUAUAUUAAUUUUUUAAUGUAGAUGUAAUUUUAAAAAUGAAUGGCUACUUUACACGUUUAACUAGGCUCUUACUAUAUAUGUGUACAUAUGUAUAUGUAUUUAUA | 3.17 ratio
UAAAUUAGGGCUGCCGUUUUCUGUUUCUCCCUGGGCUGCGGAAAGCCAGAAGAUUUUAUCUAGUUUGUACAAGGCUGCUGGUGUUCCCUCUUUUUUUCCACGAGGGUGUUUUUGGCUGCA | 1.24 ratio
AAUGUUCUUAAUAUUUUUGAAUAAAUGAAGCUAAAAUGUCUGCUUUUGGUACAACACGCAUUAAUAAAAGGUUAAGUUUUGUUUUCCCUCCACUGAAUAUUUAACAUCUCAGAAAAAAAC | 0.316 ratio
GUUGCCAGCUUCCGGUUGGCCUCCAUCCGGUUCUCUCCUGAGCUACGUGUCUCUACGCUCUCAAUCCGCCAUCCAACAAACAUGGAUCAGGUAAUGCUGCAGUUUGUGCCCAGCCGGCAG | 0.18 ratio

Sample 5
Target: RNA binding protein fox-1 homolog 2, RRM domain, GST-SBP tag (RBFOX2, Homo sapiens, UniProt O43251-10, residues 100-194)
Method: RNA Bind-n-Seq
Molecule type: RNA
Medium: in vitro
Tested at: 365 nM
Notes: natural RNA segment, single round, ends assumed
Relative to: no-protein control
Reading: higher = stronger binding
Shared flanks, not repeated: GGGAGUUCUACAGUCCGACGAUC … UGGAAUUCUCGGGUGCCAA
Target sequence (chain): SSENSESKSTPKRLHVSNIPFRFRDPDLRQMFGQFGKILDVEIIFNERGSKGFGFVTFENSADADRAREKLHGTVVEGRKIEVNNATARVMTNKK
Oligonucleotide | RBNS enrichment (R)
GUCCCCUGGGGCAUCUCUGUCCCCUCCACCUGCCCAAGACCCAACUCUAGGAUGAAGGCCUUGAAUAUCGAUCGCUGCCAGUCCCUAAUAAGACUUUCCCUGCCAACCAG | 0.277
ACCAGGCCUUCCCUCUAGGGCUUCUGGCUACUUGCUGCAGUUCUUUGUCAGCGAGGCUCCCUGCCACCUAUACUACCAGGUGCUUUGUAGCAGAGAGAGCCCAUCUGCAG | 0.372
UCCACCACCAAGCCUGGGGACUUCGCCCCAACAAAAUUGUAAACGUUGUUAGGUUUUCGUGUAAGACUCUUGCUGUAUCGUGACAGCUGUGAUUGGUGAGUUGACCGUCC | 0.274
GUAGUUUGCAGUCUGAGAUAUGGGAGAGCUUUUAGGCUACACAGCAACCCAAGGGACCUCUCACCUUUUGCUGAGCUUCAAUCAGGAAGCUAUUUGCCUGGCUCCAGCAG | 0.39
GGGCUUGGGGAAAGAAGGCUGCAGGCAGCCUGCCGUCUAGGCAUCACUUUAUUUUUUAUCCUCCAGACUUCUGCUCCUCCCACAGCUGAUGACUUGCACUUUUAAAGUGG | 0.419
UACAGCUGGAGGGUCAGGAACUGUUACCUUCCUUCCCCUUGGCAUUAAUAAAUUUAAGUUAAUCCUUUCCAUUCUUCCUAUGUUCUGUUUCCUUAAACACAAUAUAAGUA | 0.262
UGCGUUUCAGGGACAUGGGGAGACAUGAAGAAGGCAGCUGCAGCUUGCUGUGGAGACCCCGUGGCUCUGCACUUUACCCGUGAGGGCAUUAACCUGACCCAGCAUGGAAG | 1.18
GUUCGCAGCUGAGUUGUGAUACUGACCUGGUAAUCAGACCAAAGUACUGUCCCGGCUGGUUUUAUCUCAGCUCCUCUCAGCCGUGUCUCUGGCACGCUUGAGAGGAGUCA | 0.226
ACAAGAUUGUGUCUGGAAACCUUCGCAUCUUGGACCACUGAAUGAAAAAUACUGUGGACACUUAAAUAAUGGGCUAGUUUCUUACAAUGAAAUGUUCUCUAGGAUUCUAA | 0.427
AAGAAGUCUGCCUCUGAGUUACAGCUCUUUCUCAACAAGUACAGAGUUUGAGGCUUGCAGUUGCAACAGCUGGAUGUUUGGUGGUUCUUGCUGCCAGCCAAAUAAAUUGG | 0.46
CGAAAUCAGUGCGCUCCAGCUGAUCUCGUUCCGCCGGUUCCCCUUGGCCGCCAGUUCCGUUCUCCUCACGGGCCGAACGGAACAAGGGGUCCAGCUUGCGGGGGACCCUC | 1.22
UUGUUCCUAGCUAAUUUCAUGGCUGUGGGAAGUUAGCAACACUAGGUUUAUGACUCUGAAGACCAGAGGACAGCAGGCUUUAAGAGGGCUUAAAUUGGGAGUCAAGGACU | 0.855

Some of these lines once more (sample 1):
Oligonucleotide | E-score
GCTTTGCC | -0.118
CTCTTACA | -0.214
CCCGGCGC | 0.322
AGGTTCGA | -0.21
GAGACAAC | -0.141
ATTACCCG | 0.151
AGTGCATC | -0.13
ACACTAGT | -0.113
CGCCTGGC | 0.171
CTATTTGA | -0.0453
GACATGTA | 0.023
